Experimental data of several laboratories.
Parts stem from different laboratories: compare values within a part only. Substitutions count along the parent as printed.

Block 1
Target: CCNB2, cyclin fold, Cln2 fusion (human)
Technique: yeast growth competition, sequencing
Sample: yeast
Setting: strong parent motif
Baseline: not given
Reading: higher = stronger binding
Starting sequence: viral docking peptide; YKVKRRLVFGADD
Variant	normalised enrichment score
D13A	0.762
R5F	-0.41
R5N	0.135
K4P	0.297
G10W	1.2
R6F	0.417
F9G	0.561
V3D	0.648
L7N	0.813
D12S	1.18
A11I	1.53
G10L	1.45
K4R	2.44
L7G	0.339
F9P	0.118

Block 2
Target: UBE2W UBC core domain (UniProt Q96B02)
Technique: yeast two-hybrid
Sample: yeast
Setting: mostly zero background
Baseline: not given
Reading: higher = stronger interaction
B1: Ltn1 RING domain (UniProt Q6A009); chain VDKRFEGVEDCMICFSVIHGFNYSLPKKACRTCKKKFHSACLYKWFTSSNKSTCPLCRETFF
Target sequence (chain): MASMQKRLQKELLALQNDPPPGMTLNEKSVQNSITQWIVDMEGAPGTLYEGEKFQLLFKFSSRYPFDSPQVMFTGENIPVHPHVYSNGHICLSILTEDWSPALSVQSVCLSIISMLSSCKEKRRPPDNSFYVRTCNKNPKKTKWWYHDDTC
Sequence	lacZ reporter activity
B1 (Ltn1 RING domain)	0
KLWDINAHITCRLCSGYLIDATTVTECLHTFCRSCLVKYLEENNTCPTCRIVIHQSHPLQ (PCGF3 RING domain (UniProt Q3KNV8))	0
KITELNPHLMCVLCGGYFIDATTIIECLHSFCKTCIVRYLETSKYCPICDVQVHKTRPLL (BMI1 RING domain (UniProt P35226))	0

Block 3
Target: HLA class I histocompatibility antigen, A alpha chain, allele A*25:01 (Homo sapiens, UniProt P04439)
Read-out: peptide-MHC binding
Molecule type: peptide
Concentration: concentration not given
Sequence	binding
FLSFASLFL	inactive
RSVWIPGRW	inactive
MLTNASGHA	inactive
RLGWRTLDF	inactive
LSIIFGRSY	inactive
TPSHYSGNI	inactive
TMLVRQMTK	inactive

Block 4
Target: Prothrombin, mature alpha-thrombin (F2, Homo sapiens, UniProt P00734)
Technique: aptamer microarray, sandwich
Molecule type: DNA with 2'F-ANA
Sample: in vitro
Concentration: 200 nM
Setting: whole 15-mer aptamer, many near background
Added: Cy3 exosite-II aptamer, 400 nM
Reading: higher = stronger binding
Strand: GGTTGGTGTGGTTGG
Modification	mean fluorescence intensity
2'F-ANA at 1 6 7 9 12	321 a.u.
2'F-ANA at 1 2 3 7 9 10 13 14 15	55.5 a.u.
2'F-ANA at 1 2 5 8 11 13 15	52.5 a.u.
2'F-ANA at 2 4 5 7 8 10 11 12	50.8 a.u.
2'F-ANA at 1 2 5 7 8 9 13 14 15	49.1 a.u.
2'F-ANA at 1 2 5 8 9 10 11 14	50.1 a.u.
2'F-ANA at 1 2 3 5 6 7 9 11 12 13 14	45.3 a.u.
2'F-ANA at 3 4 7 8 9 13 15	530 a.u.

For quick reference, copied from above (block 4):
Modification	mean fluorescence intensity
2'F-ANA at 1 2 3 5 6 7 9 11 12 13 14	45.3 a.u.
2'F-ANA at 1 6 7 9 12	321 a.u.
2'F-ANA at 1 2 3 7 9 10 13 14 15	55.5 a.u.
2'F-ANA at 1 2 5 7 8 9 13 14 15	49.1 a.u.
2'F-ANA at 1 2 5 8 9 10 11 14	50.1 a.u.
